Experimental data gathered from unrelated publications.
Each numbered part is a random draw from the data of one study; scales do not carry over between parts.

Study 1
Target: RNA binding protein fox-1 homolog 2, RRM domain, GST-SBP tag (RBFOX2, Homo sapiens, UniProt O43251-10, residues 100-194)
Technique: RNA Bind-n-Seq
Molecule type: RNA
Matrix: in vitro
Tested at: 365 nM
Setting: natural RNA segment, single round, ends assumed
Baseline: no-protein control
Reading: higher = stronger binding
Quantity: RBNS enrichment (R)
Target sequence (chain): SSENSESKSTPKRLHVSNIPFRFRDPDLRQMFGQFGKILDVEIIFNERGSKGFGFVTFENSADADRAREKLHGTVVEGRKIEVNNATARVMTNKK
Oligonucleotide = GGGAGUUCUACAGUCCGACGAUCUUACUGUAAACACAGUGUUCGACUGAAGCUAGAGUGCAGAGUCGCAGCACUGCUGACUGCCUGCCUCUCUGACAUGUGGCUCUUGUUUCGUGGGGACUUUUCCUCUGGAAUGGAAUUCUCGGGUGCCAA; result = 0.355
Oligonucleotide = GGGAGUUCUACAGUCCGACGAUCGUCUCCAGCGCCACACAUCCGAGGUGUACUUUGUGUGCAGAAUGUGUCUUCCUUCUGGCCUGUAAUCCCCUUCCCAUGAAAGAUUAAUGAGGGAAAUCUUUAUAUUCUGUUGGAAUUCUCGGGUGCCAA; result = 1.33
Oligonucleotide = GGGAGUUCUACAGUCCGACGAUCAGCCCCGUGCCCUUGUCUACAGCUGUCCCUUGUGCUUUCUGUGUCGUGUAGUUGGUGUGAGUAUUCUGUGACACAAGUGACGACAGGCUCAGUGACUGCCUGUACCUGUGUGGAAUUCUCGGGUGCCAA; result = 0.57
Oligonucleotide = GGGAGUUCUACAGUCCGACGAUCCCACCACCAACAACAAAAAACAAAAGUCCAAAAAACCAAAAAACCUACAAAGGCAAAAGAGGUUUGAGAGCCGUGGUUGUUUAGGACAGUUGUGGUUUGUAGCAGGAAAGUGGAAUUCUCGGGUGCCAA; result = 0.518
Oligonucleotide = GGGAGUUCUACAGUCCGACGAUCAUGUUAGUGAAUUCUGUUUCUUUUCAUUCUCGGAAAUGGCAGGAAGCAGCUCCAGUCUCUGAUUUCCAUGGGUCACGUGCUGGGGAUGUGAUGAAGCCUGCAGUCUGCACUGGAAUUCUCGGGUGCCAA; result = 0.739
Oligonucleotide = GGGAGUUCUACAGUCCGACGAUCGGGGCAGGAGGUGGGGUGGAAAUAGGGUGGGCUCCUUUCCUCAGGUAGAGUGGGGGGCCAAAACCUCUGCAGUCCCCGGCAGUGAGCUAUGGACUUUCUUCCCCCUCACAUGGAAUUCUCGGGUGCCAA; result = 0.531
Oligonucleotide = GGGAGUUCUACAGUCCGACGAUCCUGCCUACCCUCGAGUCCCGCAGCCUUAACAGGAUGGGAUCGAGGGUCCCCAUGGGGUGGCUCAGAGAUAGGACCCUGGUUUUAAAUCCCUCCCAGCCUGGUGCUGGUGAUGGAAUUCUCGGGUGCCAA; result = 0.266
Oligonucleotide = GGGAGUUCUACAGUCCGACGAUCAAAUUCCAAGGAUUAGGAAAAGUGGAAUGUUUUUGCCCCUCAAAGUCCACCCCCUAGACAGCAAUGCCCUCUGGACUUGAUCCUGAGCCUAAUAAACCUGUGUGCACUCCUGGAAUUCUCGGGUGCCAA; result = 0.577

Study 2
Target: Sal-like protein 4, full length isoform B (SALL4, Homo sapiens, UniProt Q9UJQ4-2, residues 1-616)
Technique: universal PBM
Molecule type: double-stranded DNA, one strand shown
Matrix: in vitro
Tested at: not given
Setting: 8-mer, flanks averaged, mean of replicates
Reading: higher = stronger binding
Quantity: E-score
Residues (chain): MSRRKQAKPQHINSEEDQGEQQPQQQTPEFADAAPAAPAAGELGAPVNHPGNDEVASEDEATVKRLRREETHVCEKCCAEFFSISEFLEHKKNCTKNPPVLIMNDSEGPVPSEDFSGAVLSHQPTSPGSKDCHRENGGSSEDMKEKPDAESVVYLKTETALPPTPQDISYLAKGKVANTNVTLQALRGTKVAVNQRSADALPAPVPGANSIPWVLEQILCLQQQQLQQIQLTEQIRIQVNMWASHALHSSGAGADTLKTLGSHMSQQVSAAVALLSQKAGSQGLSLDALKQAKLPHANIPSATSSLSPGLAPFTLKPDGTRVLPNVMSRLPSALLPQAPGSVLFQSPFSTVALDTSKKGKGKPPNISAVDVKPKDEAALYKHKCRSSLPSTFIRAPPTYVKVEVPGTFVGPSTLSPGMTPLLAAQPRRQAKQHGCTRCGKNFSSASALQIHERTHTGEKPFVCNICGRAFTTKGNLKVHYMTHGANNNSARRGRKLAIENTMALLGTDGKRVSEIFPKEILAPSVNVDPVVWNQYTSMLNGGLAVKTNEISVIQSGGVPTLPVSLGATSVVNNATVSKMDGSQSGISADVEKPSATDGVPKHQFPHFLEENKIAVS
Oligonucleotide = CCTGAAAA; result = 0.12
Oligonucleotide = AAAAGAAA; result = 0.255
Oligonucleotide = ACTTTGCC; result = -0.172
Oligonucleotide = CCTACCTC; result = -0.256
Oligonucleotide = AACTCTTA; result = -0.0115
Oligonucleotide = CTGAGCTA; result = -0.245
Oligonucleotide = CCAATCCA; result = -0.247
Oligonucleotide = AGGGGCGG; result = -0.301
Oligonucleotide = ACCTAGAA; result = 0.136
Oligonucleotide = ATGAATGC; result = 0.248
Oligonucleotide = ATGGTTAA; result = 0.186
Oligonucleotide = CTGTAGCA; result = 0.0342
Oligonucleotide = CATAAGGC; result = 0.0632
Oligonucleotide = CGGAAGCC; result = -0.269
Oligonucleotide = AGAGAGAC; result = -0.154
Oligonucleotide = ATCAAAGC; result = -0.0755
Oligonucleotide = TTATCCAA; result = 0.3
Oligonucleotide = GACTGGCA; result = -0.28
Oligonucleotide = TAAGATCA; result = 0.165

Study 3
Target: PABPC1L2, full length, GST fusion (mouse, UniProt A0ABA7IW68)
Technique: RNAcompete
Molecule type: RNA
Matrix: in vitro
Tested at: 20 nM
Setting: 7-mer, probes averaged, single round
Baseline: mean of 7-mers
Reading: higher = stronger binding
Quantity: 7-mer Z-score
Residues (chain): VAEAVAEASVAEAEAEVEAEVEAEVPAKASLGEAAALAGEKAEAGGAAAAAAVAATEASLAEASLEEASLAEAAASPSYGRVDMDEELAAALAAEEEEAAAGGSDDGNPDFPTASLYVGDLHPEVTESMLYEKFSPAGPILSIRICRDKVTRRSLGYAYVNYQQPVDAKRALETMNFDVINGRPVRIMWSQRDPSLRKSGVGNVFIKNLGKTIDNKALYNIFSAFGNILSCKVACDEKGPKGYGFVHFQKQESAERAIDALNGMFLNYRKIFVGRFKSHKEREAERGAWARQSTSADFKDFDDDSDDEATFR
Oligonucleotide = ACCACCC; result = -0.224
Oligonucleotide = AUUCUCU; result = -0.293
Oligonucleotide = CUACCCU; result = -0.447
Oligonucleotide = UCACAAG; result = -0.104
Oligonucleotide = CCGACGU; result = -0.19
Oligonucleotide = UACCCAU; result = -0.28
Oligonucleotide = GGCGCCA; result = -0.132
Oligonucleotide = CGGUGUA; result = -0.0935
Oligonucleotide = CCUAGGA; result = 0.00436
Oligonucleotide = CAGUUAA; result = -0.0337
Oligonucleotide = AUUCGCG; result = -0.249
Oligonucleotide = AGUCCUC; result = -0.258
Oligonucleotide = GUAGCCA; result = -0.199
Oligonucleotide = GAGUCAG; result = -0.217
Oligonucleotide = AUAUACG; result = -0.0174
Oligonucleotide = GUGCGUC; result = -0.296
Oligonucleotide = AAAGUCG; result = 0.952
Oligonucleotide = GAGGAUA; result = 0.142
Oligonucleotide = AACCAAC; result = 0.198
Oligonucleotide = GUACAUG; result = -0.106

Study 4
Target: Ras GTPase-activating protein-binding protein 1, full length (G3BP1, Homo sapiens, UniProt Q13283)
Sequence of UniProt Q13283 (whole entry, looked up): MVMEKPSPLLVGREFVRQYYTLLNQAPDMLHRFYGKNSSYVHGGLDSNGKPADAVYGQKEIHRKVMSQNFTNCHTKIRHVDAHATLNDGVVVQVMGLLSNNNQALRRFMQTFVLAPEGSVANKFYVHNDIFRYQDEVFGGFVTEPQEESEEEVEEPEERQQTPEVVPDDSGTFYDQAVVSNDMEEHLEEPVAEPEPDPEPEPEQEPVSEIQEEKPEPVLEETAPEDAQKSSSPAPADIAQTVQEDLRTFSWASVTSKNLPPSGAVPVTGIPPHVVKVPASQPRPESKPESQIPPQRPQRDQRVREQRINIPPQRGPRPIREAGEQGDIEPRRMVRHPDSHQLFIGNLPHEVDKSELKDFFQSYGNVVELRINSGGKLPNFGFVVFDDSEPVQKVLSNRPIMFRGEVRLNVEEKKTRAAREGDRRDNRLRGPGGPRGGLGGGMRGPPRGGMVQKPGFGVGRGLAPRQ
Technique: RNA Bind-n-Seq
Molecule type: RNA
Matrix: in vitro
Tested at: 200 nM
Setting: whole 134-nt RNA, ends assumed
Together with: 150 mM KCl
Baseline: input library
Reading: higher = stronger binding
Quantity: log2 enrichment
Oligonucleotide = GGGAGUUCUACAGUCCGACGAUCCUCAAGUCCUGUGCUACACAUCGUAUGUACCGAAUCGGUUGGGGUUGGUUGGGGAAAGUAUUAUGUUACGCCGUUCGGAUCUGCACUUCCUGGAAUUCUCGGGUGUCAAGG; result = 0.786
Oligonucleotide = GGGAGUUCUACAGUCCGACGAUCUGUUGCCGUGUGUCUCACCCUACCAUUUCAGAAAAAUGUUCGUUGGUGGCCUGAGCUGGGAUACUAGCAAAAAAGAUUUAAAAGACUAUUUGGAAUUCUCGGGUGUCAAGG; result = -2.09
Oligonucleotide = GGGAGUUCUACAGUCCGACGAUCGUAGCUGCUCCAGUGGGCCCAGUGGGCCCCACUCCUACAGUUUUGCCCAUGGGAGCCCCUGUUCCCCGGCCUCGUGGUCCCCCACCGCCCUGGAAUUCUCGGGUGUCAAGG; result = -0.0103
Oligonucleotide = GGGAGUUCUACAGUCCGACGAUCUUCCUCAAGUCCUGUGCUACACAUCGUAUGUACCGAAUCGGCGGCGGGCGGAAAGUAUUAUGUUACGCCGUUCGGAUCUGCACUUCCAGCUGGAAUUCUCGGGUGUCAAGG; result = -0.32
Oligonucleotide = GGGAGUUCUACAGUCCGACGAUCUAACUUUAGAGGAGGAUCUGAUGGAUAUGGCAGUGGAUGUGGAUUUGGGGAUGGCUAUAAUGGGUAUGGAGGAGGACCUGGAGGUGGCAAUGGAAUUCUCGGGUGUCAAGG; result = 0.34
Oligonucleotide = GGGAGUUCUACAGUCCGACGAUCCACAGACAACACGCACCCACACAGAUACAGAGGGAAGGGGUUGGGAUGGGGACAGGGUGCACAGCAGGGCGGGGUAGGACCCCAGCCCCUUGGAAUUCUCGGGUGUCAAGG; result = 1.92
Oligonucleotide = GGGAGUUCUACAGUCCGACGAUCGUCCUGUGCUACACAUCGUAUGUACCGAAUCAAACCCCCCCAAACCCCCAAAUUUAAAAAAGUAUUAUGUUACGCCGUUCGGAUCUGCACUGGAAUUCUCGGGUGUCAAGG; result = -0.159
Oligonucleotide = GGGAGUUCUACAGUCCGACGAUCAGUCCUGUGCUACACAUCGUAUGUACCGAAUCGGAAAAAAAGGAAAAAGGUUUUUGGAAAGUAUUAUGUUACGCCGUUCGGAUCUGCACUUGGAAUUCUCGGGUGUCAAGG; result = -1.69
Oligonucleotide = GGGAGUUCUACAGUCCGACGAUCUUUCUCCAAGGACAUCAAGGUGCCCAAGAGCCGCUACCUGGGCUACAUCAAGGACUACGAGGGAGCGACGCUGAUGGAGUGUGAGCUGAAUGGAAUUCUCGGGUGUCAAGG; result = -1.02

Study 5
Target: TATA-box-binding protein 1 (TBP1, Arabidopsis thaliana, UniProt P28147, residues 1-200, full length assumed)
Technique: protein-binding microarray
Molecule type: double-stranded DNA, one strand shown
Matrix: in vitro
Tested at: not given
Setting: k-mer, scored over probes, only values ≥0.25
Reading: higher = stronger binding
Quantity: E-score
Residues (chain): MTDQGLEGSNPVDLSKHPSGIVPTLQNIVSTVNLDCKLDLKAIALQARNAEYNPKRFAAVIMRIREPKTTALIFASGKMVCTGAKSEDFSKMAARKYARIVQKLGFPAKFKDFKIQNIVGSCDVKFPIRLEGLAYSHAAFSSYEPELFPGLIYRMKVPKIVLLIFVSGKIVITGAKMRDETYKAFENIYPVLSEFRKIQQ
Oligonucleotide = CTTTTAA; result = 0.426
Oligonucleotide = AAAATAA; result = 0.367
Oligonucleotide = GCTTTTA; result = 0.373
Oligonucleotide = TCATTAA; result = 0.284
Oligonucleotide = AGATTAT; result = 0.252
Oligonucleotide = ATACATA; result = 0.362
Oligonucleotide = ATATGAG; result = 0.3
Oligonucleotide = GGTATTA; result = 0.263
Oligonucleotide = AATAAGT; result = 0.264
Oligonucleotide = ATAATTG; result = 0.364
Oligonucleotide = AGGATAT; result = 0.273
Oligonucleotide = TAATAGA; result = 0.276
Oligonucleotide = AGGTATA; result = 0.378
Oligonucleotide = AAACTTA; result = 0.268
Oligonucleotide = GTTTTAA; result = 0.374
Oligonucleotide = GTTTAAA; result = 0.396
Oligonucleotide = AAGTTAA; result = 0.264
Oligonucleotide = GATATAA; result = 0.43
Oligonucleotide = TAAATCA; result = 0.351
Oligonucleotide = CGATTAA; result = 0.289
Oligonucleotide = GCGTATA; result = 0.346
Oligonucleotide = AAAGTCA; result = 0.266
Oligonucleotide = GTATAAA; result = 0.466

Repeated from above (study 3):
Oligonucleotide = ACCACCC; result = -0.224
Oligonucleotide = AUUCUCU; result = -0.293
Oligonucleotide = CUACCCU; result = -0.447
Oligonucleotide = UCACAAG; result = -0.104
Oligonucleotide = CCGACGU; result = -0.19
Oligonucleotide = UACCCAU; result = -0.28
Oligonucleotide = GGCGCCA; result = -0.132
Oligonucleotide = CGGUGUA; result = -0.0935
Oligonucleotide = CCUAGGA; result = 0.00436
Oligonucleotide = CAGUUAA; result = -0.0337
Oligonucleotide = AUUCGCG; result = -0.249
Oligonucleotide = AGUCCUC; result = -0.258
Oligonucleotide = GUAGCCA; result = -0.199
